Results pooled from the literature.
Numbered parts are unrelated; each lists some results of a single study.

Study 1
Target: Histone acetyltransferase KAT6A, winged helix 1, GST fusion (KAT6A, Homo sapiens, UniProt Q92794, residues 1-85)
Technique: protein binding microarray
Molecule type: double-stranded DNA, one strand shown
Sample: in vitro
Tested at: not given
Setting: 8-mer, flanks averaged, mean of 2 arrays, mostly near background
Relative to: not given
Reading: higher = stronger binding
Quantity: E-score
Construct (chain): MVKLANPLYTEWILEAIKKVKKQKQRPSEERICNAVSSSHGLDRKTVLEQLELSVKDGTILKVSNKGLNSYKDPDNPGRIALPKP
CTTTAGAA: -0.056
ATTAGATA: -0.142
CCCTGCCG: 0.246
GCGGACTA: 0.155
CAACTTAG: -0.154

Study 2
Target: RNA binding protein fox-1 homolog 2, RRM domain, GST-SBP tag (RBFOX2, Homo sapiens, UniProt O43251-10, residues 100-194)
Technique: RNA Bind-n-Seq
Molecule type: RNA
Sample: in vitro
Tested at: 365 nM
Setting: natural RNA segment, single round, ends assumed
Relative to: no-protein control
Reading: higher = stronger binding
Quantity: RBNS enrichment (R)
GGGAGUUCUACAGUCCGACGAUCUUAUUAUGAUGUAAUACCAGUAGAAUAUUUAAAAGGCACACCACAUCUGAAUAAUCAAUGUAAAUAUUUUCUUUCAAAGUUGUAAGUUUUCAUAUCAUGUGCUGUAAAGUUGGAAUUCUCGGGUGCCAA: 0.559
GGGAGUUCUACAGUCCGACGAUCCUCGCGUGUCAAUGUGGUCAUGGUUCAUGAAACCGGACCCUCAAGAUGGAUGAUUGCUUUUAACUACUGCCAGCUGAUGUCUCUCAGCCCCUGCCCUCAUACAAGAUUUUUGGAAUUCUCGGGUGCCAA: 0.394
GGGAGUUCUACAGUCCGACGAUCAAUUUUUGACUUCCCUAUUUCAGAGAUAGUCAAUAUAAUAUGUUUAUCUAUAUCCAUAUGGAUGGAUAGGUAGGUAGAUCUUCAUAGAUUUUUUUUUCUUUUGUUAGAGGUGGAAUUCUCGGGUGCCAA: 0.575

Study 3
Target: Centromere-binding protein 1, full length, His-tagged (CBF1, Saccharomyces cerevisiae, UniProt P17106, residues 1-351)
UniProt P17106, sequence (whole entry, looked up): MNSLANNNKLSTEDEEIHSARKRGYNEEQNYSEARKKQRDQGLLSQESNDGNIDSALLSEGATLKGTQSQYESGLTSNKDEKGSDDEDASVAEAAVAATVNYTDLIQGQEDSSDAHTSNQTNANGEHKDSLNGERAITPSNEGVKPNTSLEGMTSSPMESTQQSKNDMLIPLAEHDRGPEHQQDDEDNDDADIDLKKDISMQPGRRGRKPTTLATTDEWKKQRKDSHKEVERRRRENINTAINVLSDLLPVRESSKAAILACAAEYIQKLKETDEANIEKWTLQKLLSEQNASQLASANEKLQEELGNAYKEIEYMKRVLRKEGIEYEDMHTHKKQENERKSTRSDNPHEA
Technique: competition protein-binding microarray
Molecule type: double-stranded DNA, one strand shown
Sample: in vitro
Tested at: 2 µM
Setting: whole 60-bp probe, lowest competitor level
Together with: Pho4 competitor, 0.05 µM
Reading: higher = stronger binding
Quantity: fluorescence intensity
TTTGATCTGATAGGACTCGTGCCAGCACAAGTCCTTGTCTTGATTCGCTTGACGCTGCTG: 102 a.u.
TTGCATAGTCAGTGTGGCGTGCAAACTCCACAGAATGTCTTGATTCGCTTGACGCTGCTG: 80.1 a.u.
CTTTCCCGATCTTGACGTGTGGGTGTAGCACATTTGGTCTTGATTCGCTTGACGCTGCTG: 81.4 a.u.
AATGCTTTATATAACCATGTGTTTGAATTAGCGATCGTCTTGATTCGCTTGACGCTGCTG: 227 a.u.

Single results of other studies
PhoQ, residues 284 288 289 292 302 303 TASMAF
fold induction (PhoP, residues 12 14 15 18 19 VQGLL (Escherichia coli, UniProt P23836); Sort-seq, measured: YFP reporter; E. coli; PhoQ-PhoP variant library, together with: 10 µM Mg2+; relative to: high Mg2+ state, higher = stronger signaling): 17.2
